# Assay results gathered from unrelated publications.
Structure (SMILES),target or system,assay,system,setting,how to read,quantity,result
Cc1ncsc1-c1ccc(C(C)NC(=O)C2CC(O)CN2C(=O)C(NC(=O)CCCCCCCCCCN2CCCC(Nc3ncc(Cl)c(Nc4ccccc4S(=O)(=O)C(C)C)n3)C2)C(C)(C)C)cc1 (stereo not shown),22Rv1,"RNA-seq, measured: ZNF75D mRNA",,concentration not given,baseline: DMSO,log2 fold change,-1.29
CNS(=O)(=O)Nc1nccc(Cc2c(C)c3ccc(Oc4ncccc4F)cc3oc2=O)c1F,BFTC-905,cell viability,,7 days,,IC50,0.0151 µM
COc1ccccc1-c1ccncc1C(=O)Nc1nnc(OCc2ccc(Cl)cc2)s1,MDA-MB-231,,,"0.1875 µM, mean of 3 replicates",baseline: untreated,colony survival,94.8%
Cn1ncc2cc(-c3cncc(Cl)c3N3CCC4(CCNC4=O)CC3)ccc21,LS174T,"gene expression, microarray, measured: SPAG4 mRNA",,"concentration not given, 24 h",baseline: untreated cells,log2 fold change,2.75
CO[C@@H]1[C@@H](OC(N)=O)[C@@H](O)[C@H](Oc2ccc3c(O)c(NC(=O)c4ccc(O)c(CC=C(C)C)c4)c(=O)oc3c2C)OC1(C)C,DLD-1 parental,,,"50 µM, replicate 2",,colony count,71
CCN(CC)CC(=O)Nc1cccc(-n2cc(-c3ccc4ccc(-c5cn(-c6cccc(NC(=O)CN(CC)CC)c6)nn5)cc4c3)nn2)c1,RCC4,"PCR angiogenesis array, measured: MMP14",,"5 x IC50, 2 h, normoxia",baseline: untreated,fold regulation,1.06
COC1CN([C@H]2CC[C@H]([C@@]3(C)Oc4c(Cl)cc(C(=O)NCc5c(SC)cc(C)[nH]c5=O)c(C)c4O3)CC2)C1,,"RNA-seq, measured: ACP3","human, whole blood","dose not given, 24 h",baseline: pretreatment baseline,log2 fold change,1.28
CC(C)c1ccc(N(C)c2ccc3c(c2)OCC[C@H]3CNc2cnccc2C(=O)O)cc1,T24,"cell growth or viability, ATP luminescence",,7 days,,IC50,≥ 10 µM
CN1CCCNC(=O)c2cccc(c2)C(=O)NCCCN(C)CCCNc2cccc3c2C(=O)c2cccc(c2C3=O)NCCC1,SAS,"RNA-Seq, measured: MAPK9 mRNA",,"1 µM, 6 h",baseline: untreated cells,log2 fold change,-0.57
CCN(C(=O)c1cc(F)ccc1Oc1nncnc1N1CCC2(C1)CN([C@H](CCCN(C)CCOC)C(C)C)C2)C(C)C,SAOS-2,cell growth or viability,,72 h,,GI50,> 10 µM

# Excerpt of the above:
Structure (SMILES),target or system,assay,system,setting,how to read,quantity,result
COc1ccccc1-c1ccncc1C(=O)Nc1nnc(OCc2ccc(Cl)cc2)s1,MDA-MB-231,,,"0.1875 µM, mean of 3 replicates",baseline: untreated,colony survival,94.8%
